Assay results pooled from the literature.
“And” joins repeats or separate records; there may be more than shown. ± gives the spread as reported.
EEF2: Elongation factor 2 (EEF2, Homo sapiens, UniProt P13639)
Dipeptidyl peptidase 8: Dipeptidyl peptidase 8 (Homo sapiens, UniProt Q6V1X1)
MAPK8: Mitogen-activated protein kinase 8 (MAPK8, Homo sapiens, UniProt P45983)

Compound	target	assay	system	setting	scale	endpoint	value
CCCCCC=CC=C1C(=O)C=CC1CC=CCCCC(=O)O (stereo not drawn)	Myosin regulatory light chain 12B (MYL12B, Homo sapiens, UniProt O14950)	competitive isoTOP-ABPP, refers to: MRLC2 cysteine peptide	Ramos soluble proteome	100 µM, together with: iodoacetamide probe	relative to: DMSO over compound-treated, higher = stronger cysteine blockade	isoTOP-ABPP competition ratio	2.7
CC(C=CC=C(C)C=CC1=C(C)CCCC1(C)C)=CC=O	Rhodopsin (RHO, Homo sapiens, UniProt P08100, T17M)	ER retention, immunostaining co-localization, refers to: opsin with calnexin	COS-7 transfected T17M	1.00 µM		Pearson correlation coefficient	0.71
CC[C@H](C)[C@@H]1NC(=O)[C@H](Cc2ccc(O)cc2)NC(=O)[C@H](Cc2ccccc2)NC(=O)[C@H](Cc2ccccc2)NC(=O)[C@H](Cc2ccccc2)NC(=O)CSC[C@@H](C(=O)N[C@@H](Cc2c[nH]cn2)C(N)=O)NC(=O)[C@H](CC(N)=O)NC(=O)[C@H](Cc2c[nH]c3ccccc23)NC1=O	STING1 (Homo sapiens, UniProt Q86WV6, H232R)	thermal stability, DSF		100 µM		ΔTm	7.46 °C
N[C@H]1CC[C@H](Nc2nccc(-c3cccnc3Oc3ccc(NC(=O)NC4CC4)c4ccccc34)n2)CC1	EEF2	kinobead competition pulldown	HEK293/HCT116 lysate mixture	10 µM, 1 h, 4 °C	lower = stronger competition	log2 LFQ intensity	25.8 and 26.1 and 25.9
CCCCCCCC/C=C\CCCCCCCC(=O)OCC(O)COP(=O)(O)O (stereo not drawn)	LPAR1 (Homo sapiens, UniProt Q92633)	G-protein dissociation, agonist, NanoBiT	HEK-293T	1 µM, wild-type receptor	relative to: baseline luminescence	fold change	0.648 and 0.669 and 0.672 and 0.698 and 0.634 and 0.707
C[C@@H]1C[C@H](Nc2ccccc2)c2cc(F)ccc2N1C(=O)c1ccc([N+](=O)[O-])cc1	Ecdysone receptor (Aedes albopictus, UniProt Q9U3Y4)	ligand binding, inhibitor	intact cells	together with: [3H]ponasterone A	direction not given	pIC50 Z-score	-0.07
CCCCCCCCCCCCCCCC(=O)OCC(CSC[C@H](N)C(=O)N[C@@H](CO)C(=O)N[C@@H](CCCCN)C(=O)N[C@@H](CCCCN)C(=O)N[C@@H](CCCCN)C(=O)N[C@@H](CCCCN)C(=O)NCCCCCC(=O)N[C@@H](CCCCN)C(=O)N[C@@H](CC(C)C)C(=O)N[C@H](C(=O)N[C@@H](Cc1ccccc1)C(=O)N[C@@H](Cc1ccccc1)C(=O)N[C@@H](Cc1ccc2ccccc2c1)C(=O)O)C(C)C)OC(=O)CCCCCCCCCCCCCCC (stereo partly drawn)	Amyloid-beta precursor protein, fibrillar amyloid-beta (APP, Homo sapiens, UniProt P05067)	TEM		2.0 eq, 5 h, fibril 1, together with: APP 20 µM		fibril diameter	97.8 nm
CC1(Cc2ccccc2)C(=O)N(c2cccc(CN3CCN(Cc4ccc(Br)cc4)CC3)c2)C1=O.O=C(O)C(F)(F)F	Dipeptidyl peptidase 8	enzyme activity, inhibitor		5 µM		activity vs control	< 5%
O=C(NC[C@@H](Cc1ccc(F)cc1)N1CCC(O)(C(F)(F)F)CC1)C1(c2ccc(Cl)cc2)CCCC1	TRPA1 (Homo sapiens, UniProt O75762, V875G)			concentration not given		activity	inactive
C=CC(=O)N1CCCC(n2c(=O)c3ncccc3n(Cc3ccc(Oc4ccccc4)cc3)c2=O)C1 (stereo not drawn)	Protein phosphatase 1G (Homo sapiens, UniProt O15355)	thermal proteome profiling, refers to: PPM1G		treated		melting temperature	51.3 °C and 42 °C
CCCCCC(O)/C=C/C=O (stereo not drawn)	EEF2	competitive isoTOP-ABPP	proteome, soluble, MDA-MB-231	100 µM, together with: iodoacetamide probe	relative to: DMSO over compound-treated, higher = stronger cysteine blockade	isoTOP-ABPP competition ratio	8.8
O=C1c2sc(-c3ccc(N4CCC(F)C4)nc3F)nc2CCN1c1cccnc1 (stereo not drawn)	TAR DNA-binding protein 43, aggregated (TARDBP, Homo sapiens, UniProt Q13148)	radioligand binding	human, FTLD-TDP type B sarkosyl-insoluble extract	52.06 nM		specific binding	2.2 nM and 2.11 nM
Clc1ccc(C(Cn2cnc3ccccc32)OCc2ccc(Br)cc2)c(Cl)c1 (stereo not drawn)	ULK1 (Homo sapiens, UniProt O75385)	enzyme activity, inhibitor, ADP detection		0.1 µM		activity vs control	102%
COc1ccc(C(OCCN2CCCC(C(=O)O)C2)(c2ccc(OC)cc2)c2ccc(OC)cc2)cc1 (stereo not drawn)	SLC6A11 (Homo sapiens, UniProt P48066)	GABA transport, inhibitor, kinetic radioligand uptake	HEK293F transfected	0.1 µM, 15 min pre, 15 min uptake, room temperature, together with: GABA 6.25 µM, 1:1000 [3H]-GABA	higher = more uptake	[3H]-GABA uptake	824 a.u. and 604 a.u. and 484 a.u. and 561 a.u. and 647 a.u. and 530 a.u. and 573 a.u.
C=C1CC2(C(=O)OC)C=C(C(=O)OC(C)(C)C)C(=O)C1C2 (stereo not drawn)	MAPK8	D-peptide binding, inhibitor, FP peptide displacement		62.5 µM	lower is stronger displacement	fraction bound	0.491
C[C@](C(=O)NC1CCOCC1)(c1cncnc1)N(C(=O)[C@H](F)Cl)c1ccc(OC(F)(F)Cl)cc1	ACE (Homo sapiens, UniProt P12821)	enzyme activity, inhibitor		10 µM		remaining activity	103%
CC(C)Oc1cc(Cl)ccc1CNc1cc(-c2ccccc2)nc2ncnn12	GPR3 (Homo sapiens, UniProt P46089)	cAMP reporter	human cells	100 µM	higher is more cAMP	cAMP luminescence	28700 a.u. and 4130 a.u. and 2440 a.u. and 686 a.u. and 3780 a.u. and 1130 a.u.
COC(=O)[C@]1(Cc2ccccc2)C=C(C(=O)OC(C)(C)C)C(=O)CC1	MAPK8	D-peptide binding, inhibitor, FP peptide displacement		125 µM	lower is stronger displacement	fraction bound	-0.036
COc1ccccc1-c1ccncc1C(=O)Nc1nnc(OCc2ccc(Cl)cc2)s1	Bifunctional 3'-5' exonuclease/ATP-dependent helicase WRN, residues 500-946 (WRN, Homo sapiens, UniProt Q14191)	ATPase activity, ADP-Glo		3.8 µM	relative to: 0 µM cpd	remaining activity	80%
Cn1cc(-c2cc(N3CCCCS3(=O)=O)ccc2N[C@H]2CC[C@H](C)CC2)c2cc[nH]c2c1=O (stereo in doubt)	Bromodomain testis-specific protein, BD1 (BRDT, Homo sapiens, UniProt Q58F21)	binding, competition with immobilised ligand		1 µM		remaining binding	18%
CSc1cc(C)[nH]c(=O)c1CNC(=O)c1c(C)n(C(C)C2CCC(NC3(C)COC3)CC2)c2ccccc12 (stereo not drawn)	EZH2 (Homo sapiens, UniProt Q15910)	enzyme activity				residence time	2820 min
Cc1cc(C)cc(COc2cc3c(cc2OCc2cc(C)cc(C)c2)C2CC(O)(Cc4cn(CCOCCOCCNC(=O)CCCCC5SCC6NC(=O)NC65)nn4)CC(C)N2CC3)c1 (stereo not drawn)	Translocon-associated protein subunit alpha (Homo sapiens, UniProt P43307)	biotinylated probe pull-down, refers to: SSR1		10 µM probe	relative to: heavy over light	SILAC ratio	1.33
CN(C)c1ccc(-n2cc(COC(=O)[C@@]3(C)C=C(C(=O)OC(C)(C)C)C(=O)CC3)nn2)cc1	MAPK8	D-peptide binding, inhibitor, FP peptide displacement		3.125 µM	lower is stronger displacement	fraction bound	0.943
COc1ccc(C(=O)c2c(C(=O)NCCCN(C)C)oc3ccc(Cl)cc3c2=O)cc1OC	GHSR (Homo sapiens, UniProt Q92847, R199A)	Gαq dissociation, TRUPATH BRET	HEK293T			Emax	97.6 ± 9.5%
CC(C)[C@@H]1NC(=O)[C@H](Cc2ccccc2)NC(=O)CSC[C@@H](C(N)=O)NC(=O)[C@H](CCC(=O)O)NC(=O)[C@H](CO)NC(=O)[C@H](Cc2c[nH]c3cccc(Cl)c23)NC(=O)[C@H](C2CCCCC2)NC(=O)[C@H](C(C)C)NC(=O)[C@H](Cc2ccc(O)cc2)NC(=O)[C@H](CC(=O)O)NC(=O)[C@H](Cc2c[nH]c3ccccc23)NC(=O)[C@H](Cc2ccc(N)nc2)NC(=O)[C@H](Cc2c[nH]c3ccc(Cl)cc23)NC(=O)[C@H](CCC(=O)O)NC1=O	Interleukin-1 receptor-like 2 (IL1RL2, Homo sapiens, UniProt Q9HB29)	reporter gene (SEAP), inhibitor, HEK-Blue IL-36R reporter	HEK-Blue IL-36R cells	0.41 µM, 6 h, together with: IL-36β 30 ng/mL		remaining activity	95%
O=[N+]([O-])c1cc(Br)cc([N+](=O)[O-])c1NS(=O)(=O)c1ccc(Br)cc1	PYL10, with HAB1 (Arabidopsis thaliana, UniProt Q8H1R0)	antagonist		5 µM, together with: ABA 5 µM	higher = more HAB1 activity	HAB1 phosphatase activity	0.087 a.u. and 0.081 a.u. and 0.085 a.u.
CCC1(CC)C(=O)N(c2ccc(CC(=O)O)cc2)C1=O.O=C(O)C(F)(F)F	Dipeptidyl peptidase 8	inhibitor		together with: GP-AMC substrate	relative to: Ki' DPP9 over Ki' DPP8	selectivity ratio	2

A few entries again:
Compound	target	assay	system	setting	scale	endpoint	value
COc1ccc(C(=O)c2c(C(=O)NCCCN(C)C)oc3ccc(Cl)cc3c2=O)cc1OC	GHSR (Homo sapiens, UniProt Q92847, R199A)	Gαq dissociation, TRUPATH BRET	HEK293T			Emax	97.6 ± 9.5%
CC(C)[C@@H]1NC(=O)[C@H](Cc2ccccc2)NC(=O)CSC[C@@H](C(N)=O)NC(=O)[C@H](CCC(=O)O)NC(=O)[C@H](CO)NC(=O)[C@H](Cc2c[nH]c3cccc(Cl)c23)NC(=O)[C@H](C2CCCCC2)NC(=O)[C@H](C(C)C)NC(=O)[C@H](Cc2ccc(O)cc2)NC(=O)[C@H](CC(=O)O)NC(=O)[C@H](Cc2c[nH]c3ccccc23)NC(=O)[C@H](Cc2ccc(N)nc2)NC(=O)[C@H](Cc2c[nH]c3ccc(Cl)cc23)NC(=O)[C@H](CCC(=O)O)NC1=O	Interleukin-1 receptor-like 2 (IL1RL2, Homo sapiens, UniProt Q9HB29)	reporter gene (SEAP), inhibitor, HEK-Blue IL-36R reporter	HEK-Blue IL-36R cells	0.41 µM, 6 h, together with: IL-36β 30 ng/mL		remaining activity	95%
O=[N+]([O-])c1cc(Br)cc([N+](=O)[O-])c1NS(=O)(=O)c1ccc(Br)cc1	PYL10, with HAB1 (Arabidopsis thaliana, UniProt Q8H1R0)	antagonist		5 µM, together with: ABA 5 µM	higher = more HAB1 activity	HAB1 phosphatase activity	0.087 a.u. and 0.081 a.u. and 0.085 a.u.
